Results gathered from unrelated publications.
A part holds a random share of what one study measured.

Sample 1
Target: RNA binding protein fox-1 homolog 2, RRM domain, GST-SBP tag (RBFOX2, Homo sapiens, UniProt O43251-10, residues 100-194)
Method: RNA Bind-n-Seq
Form: RNA
Matrix: in vitro
Concentration: 365 nM
Setting: natural RNA segment, single round, ends assumed
Relative to: no-protein control
Direction: higher = stronger binding
Target sequence (chain): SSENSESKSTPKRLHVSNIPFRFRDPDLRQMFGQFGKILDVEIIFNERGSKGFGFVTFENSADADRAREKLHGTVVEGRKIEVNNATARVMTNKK
| Strand | RBNS enrichment (R) |
| --- | --- |
| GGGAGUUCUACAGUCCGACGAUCUGCAGGAGACAGGCAGGAUCAGUUGUGGUAAUGAUGCCUGUGGCAAACACAAACACCUACUUGGGCUGCACACAGUCACACAAUCAAUCUAUAAUUCUUGGGGUUAGCUCUGGAAUUCUCGGGUGCCAA | 0.704 |
| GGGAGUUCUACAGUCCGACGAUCAUUCCAGCCCUCCUUGAGCUCACUACUUGACCAGACUGGGUAAUGCAUCACCUCUUCUCAUCAGUGGUCAGGAGAAGUGCAGCUAGAAAGUGGCCCACACAAGCCGUCUGUGGAAUUCUCGGGUGCCAA | 0.994 |
| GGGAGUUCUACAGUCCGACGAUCUUACAUGCAUUGUAAUUCUGCUUUGUCUAUAAGAUAUGGUCAAGUACAGCUCUGUGAAAGUUCUGAUUCUCUUCCUUCCCUGUUUGUCAAUGUUUUAUUCUGAAGUAAACUGGAAUUCUCGGGUGCCAA | 0.69 |
| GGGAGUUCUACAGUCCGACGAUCGUAUUACAACCCAACGGCGGCCCAUCUUCAACGGAAAGCGAGAACCAUUUUGGAAACUGUCAUGUAACUUAUUUUCUCCUUUAACCUCGUCAUCGUUUUCUGUAGGGGAAUGGAAUUCUCGGGUGCCAA | 0.723 |
| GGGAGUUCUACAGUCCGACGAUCGGGACCCAGGUGGGACUUAGCAGUGAGUAUUGGAAGACUUGGGUUGAUCUCUUAGAAGCCAUGGGACCUCCUCCCUCAUUCAUCUUGCAAGCAAAUCCCAUUUCUUGAAAUGGAAUUCUCGGGUGCCAA | 0.553 |
| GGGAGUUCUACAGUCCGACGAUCUCAUCGUCCUUGUACUGCGCUUCUGUUUACAAACGAUUCACUGAACAGACUUAACUUGAUGAUGGAAAUGAUGAAAAACAGGCCUAAUGUAGGUGUAAAAGUGUAUUCAAUGGAAUUCUCGGGUGCCAA | 0.268 |
| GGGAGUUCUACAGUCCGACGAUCCCACUCAACUACCUCACCCACCUGCUCUGGCUCAAGGCUGAUGGCAAUCGGCUGCGAAGUGCCCAGAUGAAUGAACUGCCCUACCUGCAGAUUGCUAGUUUUGCUUAUAAUGGAAUUCUCGGGUGCCAA | 5.49 |
| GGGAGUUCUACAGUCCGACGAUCAUAUAGAUGGAAAUAUACUUUAUAUUUUGUAUCAUCGUGCCUAUAGCCGCUGCCACCGUGUAUAAAUCCUGGUGUAUGCUCCUUAUCCUGGACAUGAAUGUAUUGUACACUGGAAUUCUCGGGUGCCAA | 0.819 |
| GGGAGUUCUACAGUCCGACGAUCUCAUCUAAACUUCAGUUUACAGACAAAAUUAGAGCUUUGUUUUAUUUGGAGAAGGGGGAUGCAUUCAUUUGAUUUUGUUUUUUGUUUUUAAUUAAUUGAAUAUAAUAGGAUGGAAUUCUCGGGUGCCAA | 0.856 |
| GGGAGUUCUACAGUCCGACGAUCUGCCAGCAUCCUGUAGCGCGGAUAGCUGCUUCCAUGGCCACAGGCCUGAACCGGUGUGUAUUUGGGGAUCUGGAUGUGUAUGGCCACGGUGUGGCAGCUUUUGGAUUUUUUGGAAUUCUCGGGUGCCAA | 3.67 |
| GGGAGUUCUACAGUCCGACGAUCUAAAUGAGGAAAAAUUUCUGUCAAAUUAGCCUAGUAAAAUUUCUGAUCGUUCAUUAUAAAGGCAGCGUUCAUAGAAUUGCUUUUCUUUCUUUUUACCCCCCCUUUGGGAAUGGAAUUCUCGGGUGCCAA | 0.371 |
| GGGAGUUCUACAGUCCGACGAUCGGUUUUUGGUUUGGAGACAUCCAAAGCCUGAAGCCAGGUGGGUGUGGGCAGGGGCUGCAUUUUAUGAAACUGCCCAGCAAGCUGCGCUCCCUGGGGCCCCAGGAUCCACCUGGAAUUCUCGGGUGCCAA | 0.491 |

Sample 2
Target: Histone acetyltransferase KAT6A, winged helix 2, GST fusion (KAT6A, Homo sapiens, UniProt Q92794, residues 85-181)
Method: protein binding microarray
Form: double-stranded DNA, one strand shown
Matrix: in vitro
Concentration: not given
Setting: 8-mer, flanks averaged, mean of 2 arrays, mostly near background
Relative to: not given
Direction: higher = stronger binding
Target sequence (chain): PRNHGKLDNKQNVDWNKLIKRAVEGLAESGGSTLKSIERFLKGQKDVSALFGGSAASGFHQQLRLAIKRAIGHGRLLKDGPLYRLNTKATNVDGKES
| Strand | E-score |
| --- | --- |
| GGTAGTAA | -0.0721 |
| CGTTCGCA | 0.0303 |
| GCCTACAA | -0.00645 |
| CTACGACC | -0.0862 |
| AAAGAGAG | 0.00946 |
| GTATTGAA | 0.00692 |
| CAACATTA | -0.159 |
| CGTCTTAA | -0.0161 |
| GTTCCGTA | -0.0156 |
| GGGAAGGA | -0.0214 |
| CAAATGCC | 0.12 |
| TAGGCTCA | -0.0968 |
| CAACTAGA | -0.0291 |
| TATGAGGA | -0.106 |
| AATTTCGC | 0.0564 |
| ATTGTATG | 0.0411 |

Sample 3
Target: Ras GTPase-activating protein-binding protein 1, full length (G3BP1, Homo sapiens, UniProt Q13283)
UniProt Q13283, sequence (whole entry, looked up): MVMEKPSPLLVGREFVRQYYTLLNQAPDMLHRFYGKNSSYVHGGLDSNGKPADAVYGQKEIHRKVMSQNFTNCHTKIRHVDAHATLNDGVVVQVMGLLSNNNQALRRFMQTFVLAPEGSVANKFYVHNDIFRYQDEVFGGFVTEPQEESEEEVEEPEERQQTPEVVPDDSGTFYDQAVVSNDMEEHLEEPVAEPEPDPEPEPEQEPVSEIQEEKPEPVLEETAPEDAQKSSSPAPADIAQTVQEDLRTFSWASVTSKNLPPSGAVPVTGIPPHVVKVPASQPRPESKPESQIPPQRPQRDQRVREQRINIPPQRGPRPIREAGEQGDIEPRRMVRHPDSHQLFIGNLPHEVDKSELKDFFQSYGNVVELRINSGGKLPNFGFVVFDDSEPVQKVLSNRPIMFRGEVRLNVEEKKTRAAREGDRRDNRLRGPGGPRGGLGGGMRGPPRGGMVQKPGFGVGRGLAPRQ
Method: RNA Bind-n-Seq
Form: RNA
Matrix: in vitro
Concentration: 200 nM
Setting: whole 134-nt RNA, ends assumed
Together with: 150 mM LiCl
Relative to: input library
Direction: higher = stronger binding
Library: 7-deaza-guanosine replaces G
| Strand | log2 enrichment |
| --- | --- |
| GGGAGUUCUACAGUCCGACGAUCUCCUAGUCCUAGGAAAACUCCAGUUGCCAGUGAUCAACGCCGUAGGUCCUGCAAAACAGCCCCUGCUUCCAGCAGCAAAUCUCAGACAGAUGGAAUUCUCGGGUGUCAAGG | 0.0836 |
| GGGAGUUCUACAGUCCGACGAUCUCCUGUGCUACACAUCGUAUGUACCGAAUCGGGGAAAGGGGUUUUUGGGGAAAAAGGGGAAAGUAUUAUGUUACGCCGUUCGGAUCUGCAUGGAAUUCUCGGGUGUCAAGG | 0.0075 |
| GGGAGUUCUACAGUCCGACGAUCUCCUGUGCUACACAUCGUAUGUACCGAAUCGGGGAAAAAGGGGUUUUUUUGGGGUGGGGAAAGUAUUAUGUUACGCCGUUCGGAUCUGCAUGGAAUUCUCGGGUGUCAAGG | 0.165 |
| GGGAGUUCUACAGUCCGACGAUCGCAGGAAGUAAAAACAAAUGGAAAUGCUUCGGAUAGUGGCAGGGGUGGGGGUUGCUAAGGAAAGGGUGGGAUGGGAGUGGGUAAAGUGUUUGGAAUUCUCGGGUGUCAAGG | 0.349 |
| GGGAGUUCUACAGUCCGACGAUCUGGGAGGUGGAUUUUGUUUAUUUUUAUAGCUCAUUUCCAGGGGUGGGAAUUUUUUUUUAAUAUGUGUCAUGAAUAAAGUUGUUUUUGAAAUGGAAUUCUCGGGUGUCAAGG | -0.195 |
| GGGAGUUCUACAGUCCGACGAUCAAGUCCUGUGCUACACAUCGUAUGUACCGAAUCGGGGUUUGGGGUUUGGGGUUUGGAAAGUAUUAUGUUACGCCGUUCGGAUCUGCACUUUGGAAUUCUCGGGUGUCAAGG | -0.629 |
| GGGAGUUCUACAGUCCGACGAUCCAGAGACAACACGCACCCACACAGACACAGAGGGAAGGGGUUGGGAUGGGGACAGGGUGCACAGCAGGGCGGGGUAGGACCCCAGCCCCUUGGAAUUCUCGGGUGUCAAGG | 0.526 |
| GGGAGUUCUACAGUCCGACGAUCUCCUCAAGUCCUGUGCUACACAUCGUAUGUACCGAAUCGGAGGAGGGGAGGAAAGUAUUAUGUUACGCCGUUCGGAUCUGCACUUCCAGCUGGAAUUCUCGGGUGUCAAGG | -1.73 |
| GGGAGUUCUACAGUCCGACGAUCACCAUGCAGGUGGACAUCUUUGGGAAGUGGGGCAAGGGGGGGAUAGGGAGGGGGGUAACACUUUGGGAACAGGUGGUCCCAGGUCGUUUCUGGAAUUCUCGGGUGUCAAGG | 0.299 |
| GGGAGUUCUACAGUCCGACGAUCCAAGUCCUGUGCUACACAUCGUAUGUACCGAAUCGGGGCCCGGCCCGGGCCCGGGGAAAGUAUUAUGUUACGCCGUUCGGAUCUGCACUUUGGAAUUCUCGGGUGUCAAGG | -1.45 |
| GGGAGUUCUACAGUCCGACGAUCCACAGACAACACGCACCCACACAGACACAGAGGGAAGGGUUUGGGAUGGGGACAGGGUGCACAGCAGGGCGGGGUAGGACCCCAGCCCCUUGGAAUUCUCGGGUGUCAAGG | -1.49 |

Sample 4
Target: Interferon regulatory factor 3, full length, phosphomimetic (IRF3, Homo sapiens, UniProt Q14653, residues 1-427, S386D/S396D/S398D/S402D/T404D/S405D)
Method: protein-binding microarray
Form: double-stranded DNA, one strand shown
Matrix: in vitro
Concentration: 2540 nM top
Setting: 60-bp whole probe
Together with: salmon DNA 0.4 mg/ml
Relative to: random background probes
Direction: higher = stronger binding
Constant ends, left off below: GCCTAGCAC … GTCTTGATTCGCTTGACGCTGCTG
Residues (chain): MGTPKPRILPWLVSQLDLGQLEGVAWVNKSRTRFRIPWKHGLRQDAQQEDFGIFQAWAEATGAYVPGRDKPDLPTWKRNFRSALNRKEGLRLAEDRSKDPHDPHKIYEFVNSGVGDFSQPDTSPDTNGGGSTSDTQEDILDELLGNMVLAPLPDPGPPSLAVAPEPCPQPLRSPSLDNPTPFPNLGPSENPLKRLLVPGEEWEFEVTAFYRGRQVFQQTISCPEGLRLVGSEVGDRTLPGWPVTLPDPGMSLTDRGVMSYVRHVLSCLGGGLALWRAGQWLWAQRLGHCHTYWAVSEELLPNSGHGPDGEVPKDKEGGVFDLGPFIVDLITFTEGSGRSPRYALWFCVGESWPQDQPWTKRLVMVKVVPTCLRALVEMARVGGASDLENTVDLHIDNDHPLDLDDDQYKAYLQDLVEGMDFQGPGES
| Strand | fitted relative affinity |
| --- | --- |
| CTGTTTTTGCTTTCCTTTATGTGCTAG | 4.71 z-score |
| TTTGGTTTCCTACTGCTTTAGTGCTAG | 6.01 z-score |
| TTAGATATCACTTTCGATTAGTGCTAG | 4.14 z-score |
| TTAGGCATCGGTCTCGGTTAGTGCTAG | -0.0184 z-score |
| TCAATCCTCTCACCTCAGACTGTGCTA | 0.0898 z-score |
| GACGGTATCCTACTGCCGACGTGCTAG | 3.18 z-score |
| GAGAAAATGATTTTTTTCATGTGCTAG | -0.00376 z-score |
| GTAGATATCAGTCTCGATTAGTGCTAG | 1.39 z-score |
| GACGGTTTCGGTTATCGGGACGTGCTA | 7.95 z-score |
| GACGGTTTCGACTATCGGGATGTGCTA | 2.9 z-score |
| GACGATCTCAGTTTCGTGACGTGCTAG | 2.07 z-score |
| TCATCTTTTCATTACTGACTGTGCTAG | 1.64 z-score |
| GGCGATATCAGTCTCGAGACGTGCTAG | 0.748 z-score |
| TTAGGACTCGGTTTCGGTTAGTGCTAG | 4.64 z-score |
| AAGGAAATCGGTGATCAGTCTGTGCTA | -0.24 z-score |
| TTATGTCTCGGTCTCGGTTAGTGCTAG | 1.29 z-score |
| TTAGGTTCCCTTTTCATTTAGTGCTAG | 7.33 z-score |
| TCACCTCTGCATTCCCTACTGTGCTAG | 0.62 z-score |
| TTAGGTTTCGGGGCTGGGTTAGTGCTA | 2.4 z-score |

A few entries again (sample 1):
| Strand | RBNS enrichment (R) |
| --- | --- |
| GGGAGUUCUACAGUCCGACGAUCUGCCAGCAUCCUGUAGCGCGGAUAGCUGCUUCCAUGGCCACAGGCCUGAACCGGUGUGUAUUUGGGGAUCUGGAUGUGUAUGGCCACGGUGUGGCAGCUUUUGGAUUUUUUGGAAUUCUCGGGUGCCAA | 3.67 |
| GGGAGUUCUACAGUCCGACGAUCUCAUCGUCCUUGUACUGCGCUUCUGUUUACAAACGAUUCACUGAACAGACUUAACUUGAUGAUGGAAAUGAUGAAAAACAGGCCUAAUGUAGGUGUAAAAGUGUAUUCAAUGGAAUUCUCGGGUGCCAA | 0.268 |
| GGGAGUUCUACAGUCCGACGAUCAUUCCAGCCCUCCUUGAGCUCACUACUUGACCAGACUGGGUAAUGCAUCACCUCUUCUCAUCAGUGGUCAGGAGAAGUGCAGCUAGAAAGUGGCCCACACAAGCCGUCUGUGGAAUUCUCGGGUGCCAA | 0.994 |
| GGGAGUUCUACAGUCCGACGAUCUAAAUGAGGAAAAAUUUCUGUCAAAUUAGCCUAGUAAAAUUUCUGAUCGUUCAUUAUAAAGGCAGCGUUCAUAGAAUUGCUUUUCUUUCUUUUUACCCCCCCUUUGGGAAUGGAAUUCUCGGGUGCCAA | 0.371 |
| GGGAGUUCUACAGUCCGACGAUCAUAUAGAUGGAAAUAUACUUUAUAUUUUGUAUCAUCGUGCCUAUAGCCGCUGCCACCGUGUAUAAAUCCUGGUGUAUGCUCCUUAUCCUGGACAUGAAUGUAUUGUACACUGGAAUUCUCGGGUGCCAA | 0.819 |
| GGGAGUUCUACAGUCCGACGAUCGGUUUUUGGUUUGGAGACAUCCAAAGCCUGAAGCCAGGUGGGUGUGGGCAGGGGCUGCAUUUUAUGAAACUGCCCAGCAAGCUGCGCUCCCUGGGGCCCCAGGAUCCACCUGGAAUUCUCGGGUGCCAA | 0.491 |
